Results pooled from the literature.
Numbered parts are unrelated; each lists some results of a single study. Several values in a cell are separate wells, animals, samples, runs or records.

Set 1
Structure (SMILES): Cc1ncsc1-c1ccc(C(CO)NC(=O)C2CC(O)CN2C(=O)C(C(C)C)n2cc(-c3ccc(COc4c(-c5c(C)c(F)cc6[nH]ncc56)c(C5CC5)cc5c(N6CC7CC6CN7)nc(OC6CCOCC6)nc45)cc3)nn2)cc1 (stereo not shown)
Route: intravenous
system	setting	concentration
mouse (PK-59 xenograft), tumor	30 mg/kg, 72 h	842 ng/g
male Balb/c nu/nu mouse (PK-59 xenograft), tumor	10 mg/kg, 6 h	207 ng/g
mouse (PK-59 xenograft), plasma	10 mg/kg, 144 h	0 ng/mL
male Balb/c nu/nu mouse, PK-59 xenograft, pancreas	10 mg/kg, 24 h	80.7 ng/g and 58.1 ng/g
male Balb/c nu/nu mouse, PK-59 xenograft, pancreas	10 mg/kg, 6 h	239 ng/g and 174 ng/g
male Balb/c nu/nu mouse, PK-59 xenograft, plasma	10 mg/kg, 2 h	3280 ng/mL and 1250 ng/mL and 2040 ng/mL
male Balb/c nu/nu mouse, PK-59 xenograft, plasma	10 mg/kg, 6 h	278 ng/mL and 174 ng/mL
male Balb/c nu/nu mouse, PK-59 xenograft, plasma	30 mg/kg, 2 h	6660 ng/mL and 9090 ng/mL

Set 2
Target: E3 ubiquitin-protein ligase NEDD4, HECT domain (Homo sapiens, UniProt P46934)
Observed: enzyme activity
Action: inhibitor
Technique: Ub-TR-FRET
Matrix: HECT domain
Concentration: 3.704 µM
Reading: higher = more chain formation
Residues (P46934 938-1319, limits assumed): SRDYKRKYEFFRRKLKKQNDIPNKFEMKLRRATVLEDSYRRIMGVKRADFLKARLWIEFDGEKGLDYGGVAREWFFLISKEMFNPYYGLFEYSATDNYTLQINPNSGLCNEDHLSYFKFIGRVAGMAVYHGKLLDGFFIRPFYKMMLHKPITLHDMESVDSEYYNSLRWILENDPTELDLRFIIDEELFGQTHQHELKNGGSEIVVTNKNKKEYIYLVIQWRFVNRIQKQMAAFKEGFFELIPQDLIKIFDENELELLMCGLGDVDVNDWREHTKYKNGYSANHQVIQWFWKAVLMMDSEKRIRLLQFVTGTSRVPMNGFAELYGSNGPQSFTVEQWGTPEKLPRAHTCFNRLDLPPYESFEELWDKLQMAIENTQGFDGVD
SMILES	ubiquitin chain formation AUC
N#C/C=C/CNCCCCN1c2ccccc2CCc2ccc(Cl)cc21.O=C(O)/C=C\C(=O)O	10100 a.u. and 10200 a.u. and 12100 a.u. and 10600 a.u. and 11200 a.u.
CNC(=O)/C=C/CNCCCCN1c2ccccc2CCc2ccc(Cl)cc21.Cl	78800 a.u. and 77700 a.u. and 75000 a.u. and 63600 a.u. and 60700 a.u. and 61700 a.u.
CCOC(=O)/C=C/CNCCCCN1c2cc(Cl)ccc2COc2ccccc21.O=C(O)/C=C\C(=O)O	12300 a.u. and 12000 a.u. and 14200 a.u.
Cl.NC(=O)/C=C/CNCCCN1c2ccccc2CCc2ccc(Cl)cc21	129000 a.u. and 131000 a.u. and 130000 a.u.
CN(C)C/C=C/C(=O)NCCCN1c2ccccc2CCc2ccc(Cl)cc21	125000 a.u. and 124000 a.u. and 126000 a.u.
CCOC(=O)/C=C/CN(CCCCN1c2ccccc2CCc2ccc(Cl)cc21)C(C)C.O=C(O)/C=C\C(=O)O	29700 a.u. and 31400 a.u. and 27000 a.u. and 35200 a.u. and 29400 a.u. and 27200 a.u.
CCOC(=O)/C=C/CNCCCCN1c2cc(Cl)ccc2C(=O)N(C)c2ccccc21.O=C(O)/C=C\C(=O)O	22700 a.u. and 21400 a.u. and 18500 a.u.
CNC(=O)/C=C/CNCCCN1c2ccccc2CCc2ccc(Cl)cc21.Cl	123000 a.u. and 124000 a.u. and 125000 a.u.
CONC(=O)/C=C/CNCCCCN1c2ccccc2CCc2ccc(Cl)cc21.O=C(O)/C=C\C(=O)O	7380 a.u. and 9440 a.u. and 8490 a.u. and 9190 a.u. and 9360 a.u. and 8410 a.u.
CCOC(=O)/C=C/CNCCCN1c2ccccc2CCc2ccc(Cl)cc21	11200 a.u. and 11700 a.u. and 9850 a.u.

Set 3
Structure (SMILES): C[C@@H]1CN(c2ccc(-c3cc(C(=O)NCCOCCOCCOCCOCCNC(=O)/C=C/c4[nH]cc(C(=O)N[C@@H](CC(N)=O)c5ccc(F)c(Cl)c5)c4-c4ccc(Cl)cc4F)ccc3F)cc2NC(=O)c2c[nH]c(=O)cc2C(F)(F)F)C[C@H](C)N1C
Observed: thermal unfolding
Technique: differential scanning fluorimetry
Concentration: 5.5 µM
Reading: higher = more unfolded
DCAF1: DDB1- and CUL4-associated factor 1 (DCAF1, Homo sapiens, UniProt Q9Y4B6)
Chain of UniProt Q9Y4B6 (whole entry, looked up): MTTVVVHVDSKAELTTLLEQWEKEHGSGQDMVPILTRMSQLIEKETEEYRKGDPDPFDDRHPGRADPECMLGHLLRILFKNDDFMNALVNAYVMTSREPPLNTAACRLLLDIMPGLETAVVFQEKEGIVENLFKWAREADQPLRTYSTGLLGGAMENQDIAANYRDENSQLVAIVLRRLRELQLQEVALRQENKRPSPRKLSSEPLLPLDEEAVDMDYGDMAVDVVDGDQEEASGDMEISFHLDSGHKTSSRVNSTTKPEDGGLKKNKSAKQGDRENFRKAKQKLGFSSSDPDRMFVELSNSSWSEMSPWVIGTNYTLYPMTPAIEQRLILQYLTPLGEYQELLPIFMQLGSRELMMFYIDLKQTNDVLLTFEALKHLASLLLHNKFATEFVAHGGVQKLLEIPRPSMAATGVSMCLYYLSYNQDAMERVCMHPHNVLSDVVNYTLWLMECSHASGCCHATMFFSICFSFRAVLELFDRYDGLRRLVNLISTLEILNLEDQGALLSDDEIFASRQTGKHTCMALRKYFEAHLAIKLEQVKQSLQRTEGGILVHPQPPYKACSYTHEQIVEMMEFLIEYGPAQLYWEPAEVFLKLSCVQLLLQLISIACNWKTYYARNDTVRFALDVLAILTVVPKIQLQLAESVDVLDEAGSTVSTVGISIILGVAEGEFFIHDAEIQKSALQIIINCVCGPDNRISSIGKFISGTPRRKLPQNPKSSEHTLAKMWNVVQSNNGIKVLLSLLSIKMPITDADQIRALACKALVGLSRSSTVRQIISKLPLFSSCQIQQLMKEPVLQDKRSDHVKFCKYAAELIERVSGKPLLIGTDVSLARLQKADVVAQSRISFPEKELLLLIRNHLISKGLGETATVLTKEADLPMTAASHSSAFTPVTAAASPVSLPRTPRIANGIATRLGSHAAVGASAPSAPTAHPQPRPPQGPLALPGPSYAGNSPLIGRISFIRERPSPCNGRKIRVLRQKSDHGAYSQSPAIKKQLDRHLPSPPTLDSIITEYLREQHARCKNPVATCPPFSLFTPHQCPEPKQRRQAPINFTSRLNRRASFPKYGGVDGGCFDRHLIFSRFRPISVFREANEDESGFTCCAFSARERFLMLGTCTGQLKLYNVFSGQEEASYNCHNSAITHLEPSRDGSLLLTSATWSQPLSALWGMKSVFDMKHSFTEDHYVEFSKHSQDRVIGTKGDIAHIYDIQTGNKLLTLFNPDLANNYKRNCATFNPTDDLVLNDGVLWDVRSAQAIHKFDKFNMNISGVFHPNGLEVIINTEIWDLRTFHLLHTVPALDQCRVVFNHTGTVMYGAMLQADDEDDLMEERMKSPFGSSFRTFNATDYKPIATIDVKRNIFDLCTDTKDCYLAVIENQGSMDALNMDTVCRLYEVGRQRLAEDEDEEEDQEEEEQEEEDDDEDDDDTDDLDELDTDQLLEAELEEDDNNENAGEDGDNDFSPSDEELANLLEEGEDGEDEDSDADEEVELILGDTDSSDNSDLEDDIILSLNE
WDR5: WD repeat-containing protein 5 (WDR5, Homo sapiens, UniProt P61964)
target	setting	SYPRO Orange fluorescence [a.u.]
DCAF1	85.01 °C	40200
DCAF1	84.41 °C	40900
DCAF1	28.2 °C	9050
DCAF1	54.61 °C	20700
WDR5	25 °C	12800
DCAF1	34 °C	9910
WDR5	29.8 °C	12700
WDR5	77.21 °C	31800

Set 4
SMILES: CCN1/C(=C/C=C2\CCCC(/C=C/C3=[N+](CC)c4ccccc4C3(C)C)=C2NCCCCCCCCN2CCC(Nc3nc4ccccc4n3Cc3ccc(F)cc3)CC2)C(C)(C)c2ccccc21
Cell line: U-87 MG
Concentration: concentration not given
Baseline: DMSO
test	log2 fold change
measured: NDST1 mRNA	-1.58
measured: MEST mRNA	-2.92
measured: ACTL8 mRNA	-3.69
measured: LURAP1L mRNA	1.01
measured: RFFL mRNA	1.01
measured: ANKRD52 mRNA	-0.816
measured: IFI30 mRNA	-1.14
measured: KCNJ8 mRNA	-2.47
measured: TJP2 mRNA	-1.15
measured: AURKB mRNA	-2.17
measured: JPT1 mRNA	-1.13

Set 5
SMILES: NC/C(=C\F)COc1ccc(Cl)c(-c2cc(=O)[nH]c(=S)n2CC(N)=O)c1
Target: Myeloperoxidase (MPO, Homo sapiens, UniProt P05164)
Chain of UniProt P05164 (whole entry, looked up): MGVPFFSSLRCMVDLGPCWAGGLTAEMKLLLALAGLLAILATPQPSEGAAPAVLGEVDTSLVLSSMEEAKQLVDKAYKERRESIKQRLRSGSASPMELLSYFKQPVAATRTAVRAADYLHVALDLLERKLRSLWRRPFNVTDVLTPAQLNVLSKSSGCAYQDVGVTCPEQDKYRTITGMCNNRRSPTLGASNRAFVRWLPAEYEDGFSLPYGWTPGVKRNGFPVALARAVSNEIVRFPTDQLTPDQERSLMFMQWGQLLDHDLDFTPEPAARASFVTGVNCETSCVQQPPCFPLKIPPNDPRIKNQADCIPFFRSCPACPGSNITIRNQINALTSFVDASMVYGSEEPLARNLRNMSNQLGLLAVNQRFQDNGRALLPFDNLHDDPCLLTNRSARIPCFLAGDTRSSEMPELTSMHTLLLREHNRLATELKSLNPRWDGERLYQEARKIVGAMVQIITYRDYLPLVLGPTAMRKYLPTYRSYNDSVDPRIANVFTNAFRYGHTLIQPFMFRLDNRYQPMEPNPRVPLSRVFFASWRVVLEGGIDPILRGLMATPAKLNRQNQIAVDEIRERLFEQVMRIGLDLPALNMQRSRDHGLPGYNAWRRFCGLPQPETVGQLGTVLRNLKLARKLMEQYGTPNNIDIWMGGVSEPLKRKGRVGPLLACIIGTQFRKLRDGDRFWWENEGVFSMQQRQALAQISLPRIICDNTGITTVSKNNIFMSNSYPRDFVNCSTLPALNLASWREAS
Observed: enzyme activity
Action: inhibitor
Technique: fluorescence
setting	inhibition
15 µM	98%
0.1852 µM	53.6%
300 pM	-6.26%
13.7 nM	-5.36% and -0.652%
2.3 nM	-2.51%
800 pM	-6.17%
1.5 nM	-15.9% and -11.8%
5 µM	93.8%

Further values, each from its own experiment
PKMYT1: Membrane-associated tyrosine- and threonine-specific cdc2-inhibitory kinase (PKMYT1, Homo sapiens, UniProt Q99640)
Chain of UniProt Q99640 (whole entry, looked up): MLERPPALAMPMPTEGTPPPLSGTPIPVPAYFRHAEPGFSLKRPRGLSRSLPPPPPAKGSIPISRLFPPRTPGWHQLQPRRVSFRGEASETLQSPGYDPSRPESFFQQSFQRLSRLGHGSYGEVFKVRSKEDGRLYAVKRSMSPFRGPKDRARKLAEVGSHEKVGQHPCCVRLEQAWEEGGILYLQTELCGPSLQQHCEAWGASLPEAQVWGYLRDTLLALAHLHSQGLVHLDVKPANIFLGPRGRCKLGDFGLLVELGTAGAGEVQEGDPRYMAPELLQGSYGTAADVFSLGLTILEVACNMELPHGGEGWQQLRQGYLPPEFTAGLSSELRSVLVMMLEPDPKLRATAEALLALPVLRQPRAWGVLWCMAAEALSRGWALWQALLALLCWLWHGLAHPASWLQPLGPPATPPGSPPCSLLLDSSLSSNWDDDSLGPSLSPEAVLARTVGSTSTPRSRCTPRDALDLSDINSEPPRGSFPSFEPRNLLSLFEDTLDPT
Compound	tested on	test	system	setting	measurement	value
Cc1ccc(O)c(C)c1-c1cnc2[nH]c(-c3cnc(N4CCC(CCN5CCN(c6cc7c(cc6F)c(N6CCC(=O)NC6=O)nn7C)CC5)CC4)nc3)cc2c1C#N	PKMYT1	binding, HTRF	–	0.051 nM	inhibition	-2.66% and -3.61%
Cc1ccc(O)c(C)c1-c1cnc2[nH]c(-c3cnc(N4CCC5(CC4)CC(N4CCN(c6ccc(NC7CCC(=O)NC7=O)cc6F)CC4)CO5)nc3)cc2c1C#N (stereo not shown)	–	–	female CD-1 mouse, plasma	oral, 20 mg/kg	bioavailability	53.4%
Cc1ncc(-c2cc3c(C#N)c(-c4c(C)ccc(O)c4C)cnc3[nH]2)cn1	PKMYT1	cell-free assay, TR-FRET	–	13.72 nM	inhibition	96.6%
Cc1ccc(O)c(C)c1-c1cnc2[nH]c(-c3cnc(N4CCC(CN5CCN(c6ccc7c(c6)C(=O)N(C6CCC(=O)NC6=O)C7=O)CC5)CC4)nc3)cc2c1C#N (stereo not shown)	–	–	female CD-1 mouse, plasma	oral, 10 mg/kg, fasted	bioavailability	27.4%

For quick reference, copied from above (further values, each from its own experiment):
Compound	tested on	test	system	setting	measurement	value
Cc1ccc(O)c(C)c1-c1cnc2[nH]c(-c3cnc(N4CCC5(CC4)CC(N4CCN(c6ccc(NC7CCC(=O)NC7=O)cc6F)CC4)CO5)nc3)cc2c1C#N (stereo not shown)	–	–	female CD-1 mouse, plasma	oral, 20 mg/kg	bioavailability	53.4%
Cc1ncc(-c2cc3c(C#N)c(-c4c(C)ccc(O)c4C)cnc3[nH]2)cn1	PKMYT1	cell-free assay, TR-FRET	–	13.72 nM	inhibition	96.6%
Cc1ccc(O)c(C)c1-c1cnc2[nH]c(-c3cnc(N4CCC(CCN5CCN(c6cc7c(cc6F)c(N6CCC(=O)NC6=O)nn7C)CC5)CC4)nc3)cc2c1C#N	PKMYT1	binding, HTRF	–	0.051 nM	inhibition	-2.66% and -3.61%
